Published values gathered from unrelated publications.
Each line is one published result; not all experiments were run side by side. Values joined by “and” are separate records of one study, mostly repeats; a detail may differ. ± gives the spread as reported.
plsY: Glycerol-3-phosphate acyltransferase (plsY, Streptococcus pneumoniae, UniProt P0A4Q0)
Trypanothione synthetase: Trypanothione synthetase (Trypanosoma brucei brucei, UniProt Q586P2)
LCK: Tyrosine-protein kinase Lck (LCK, Homo sapiens, UniProt P06239)
UniProt P06239, sequence (whole entry, looked up): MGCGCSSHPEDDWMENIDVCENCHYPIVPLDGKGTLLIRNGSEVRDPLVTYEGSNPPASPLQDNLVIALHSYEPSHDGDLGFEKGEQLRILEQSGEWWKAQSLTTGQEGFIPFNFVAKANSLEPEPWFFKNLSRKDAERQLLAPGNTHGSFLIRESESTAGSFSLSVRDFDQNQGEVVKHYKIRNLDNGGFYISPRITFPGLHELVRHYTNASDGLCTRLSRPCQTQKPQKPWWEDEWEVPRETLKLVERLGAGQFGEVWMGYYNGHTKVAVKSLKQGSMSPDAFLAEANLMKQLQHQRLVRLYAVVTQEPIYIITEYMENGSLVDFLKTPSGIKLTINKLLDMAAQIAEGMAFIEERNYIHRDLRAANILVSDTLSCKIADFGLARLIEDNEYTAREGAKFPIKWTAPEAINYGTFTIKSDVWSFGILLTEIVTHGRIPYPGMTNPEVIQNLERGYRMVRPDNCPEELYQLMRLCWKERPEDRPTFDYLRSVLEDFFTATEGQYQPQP
UniProt P49674, sequence (whole entry, looked up): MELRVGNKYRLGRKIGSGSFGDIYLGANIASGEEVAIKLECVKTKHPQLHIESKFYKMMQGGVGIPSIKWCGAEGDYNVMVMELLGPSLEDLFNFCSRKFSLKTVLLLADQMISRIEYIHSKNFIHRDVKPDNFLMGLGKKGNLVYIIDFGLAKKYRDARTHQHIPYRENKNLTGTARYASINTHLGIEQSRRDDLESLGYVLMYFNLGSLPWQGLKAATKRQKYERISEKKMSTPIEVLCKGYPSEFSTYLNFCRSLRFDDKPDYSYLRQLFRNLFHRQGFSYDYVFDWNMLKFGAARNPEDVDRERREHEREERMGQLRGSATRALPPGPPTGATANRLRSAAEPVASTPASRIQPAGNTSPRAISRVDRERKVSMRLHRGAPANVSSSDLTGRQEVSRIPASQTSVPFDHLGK
UniProt O75676, sequence (whole entry, looked up): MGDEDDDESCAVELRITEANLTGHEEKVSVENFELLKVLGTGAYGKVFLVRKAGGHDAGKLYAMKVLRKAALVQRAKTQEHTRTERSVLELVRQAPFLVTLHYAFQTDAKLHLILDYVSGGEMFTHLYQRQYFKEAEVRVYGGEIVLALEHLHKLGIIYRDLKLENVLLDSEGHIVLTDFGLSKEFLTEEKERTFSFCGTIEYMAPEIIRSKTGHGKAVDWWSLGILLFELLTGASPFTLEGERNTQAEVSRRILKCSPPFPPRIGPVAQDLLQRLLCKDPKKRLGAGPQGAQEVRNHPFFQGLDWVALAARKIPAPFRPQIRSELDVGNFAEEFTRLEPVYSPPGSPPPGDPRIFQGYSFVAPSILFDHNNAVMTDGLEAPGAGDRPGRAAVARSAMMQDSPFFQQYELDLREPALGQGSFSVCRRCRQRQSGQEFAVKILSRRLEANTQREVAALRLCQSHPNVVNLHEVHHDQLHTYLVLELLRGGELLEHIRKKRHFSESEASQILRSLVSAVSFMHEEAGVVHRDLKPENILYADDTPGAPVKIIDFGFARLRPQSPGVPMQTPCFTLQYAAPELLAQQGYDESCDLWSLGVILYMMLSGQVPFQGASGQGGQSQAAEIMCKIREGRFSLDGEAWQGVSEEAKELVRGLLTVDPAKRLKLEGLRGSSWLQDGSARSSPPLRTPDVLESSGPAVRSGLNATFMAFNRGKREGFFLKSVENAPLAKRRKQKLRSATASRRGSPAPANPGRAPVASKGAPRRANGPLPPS
UniProt Q96C10, sequence (whole entry, looked up): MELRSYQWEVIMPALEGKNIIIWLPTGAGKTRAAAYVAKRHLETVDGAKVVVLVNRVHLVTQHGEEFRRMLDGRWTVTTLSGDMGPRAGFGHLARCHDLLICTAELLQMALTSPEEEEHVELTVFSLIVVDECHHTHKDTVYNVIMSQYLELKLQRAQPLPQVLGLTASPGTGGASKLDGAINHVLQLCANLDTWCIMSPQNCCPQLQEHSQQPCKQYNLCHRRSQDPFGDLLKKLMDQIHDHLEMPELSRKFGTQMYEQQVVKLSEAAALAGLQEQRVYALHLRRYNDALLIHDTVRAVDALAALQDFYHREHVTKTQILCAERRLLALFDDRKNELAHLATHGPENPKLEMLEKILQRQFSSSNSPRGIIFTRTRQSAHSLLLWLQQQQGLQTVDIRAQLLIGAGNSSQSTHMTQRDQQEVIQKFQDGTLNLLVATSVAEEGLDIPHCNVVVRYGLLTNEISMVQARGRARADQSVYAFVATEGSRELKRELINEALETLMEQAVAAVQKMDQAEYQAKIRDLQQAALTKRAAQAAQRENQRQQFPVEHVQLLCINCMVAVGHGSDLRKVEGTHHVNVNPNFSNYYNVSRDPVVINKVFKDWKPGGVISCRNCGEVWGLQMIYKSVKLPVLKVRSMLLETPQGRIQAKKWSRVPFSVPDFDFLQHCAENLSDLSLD
UniProt P41594, sequence (whole entry, looked up): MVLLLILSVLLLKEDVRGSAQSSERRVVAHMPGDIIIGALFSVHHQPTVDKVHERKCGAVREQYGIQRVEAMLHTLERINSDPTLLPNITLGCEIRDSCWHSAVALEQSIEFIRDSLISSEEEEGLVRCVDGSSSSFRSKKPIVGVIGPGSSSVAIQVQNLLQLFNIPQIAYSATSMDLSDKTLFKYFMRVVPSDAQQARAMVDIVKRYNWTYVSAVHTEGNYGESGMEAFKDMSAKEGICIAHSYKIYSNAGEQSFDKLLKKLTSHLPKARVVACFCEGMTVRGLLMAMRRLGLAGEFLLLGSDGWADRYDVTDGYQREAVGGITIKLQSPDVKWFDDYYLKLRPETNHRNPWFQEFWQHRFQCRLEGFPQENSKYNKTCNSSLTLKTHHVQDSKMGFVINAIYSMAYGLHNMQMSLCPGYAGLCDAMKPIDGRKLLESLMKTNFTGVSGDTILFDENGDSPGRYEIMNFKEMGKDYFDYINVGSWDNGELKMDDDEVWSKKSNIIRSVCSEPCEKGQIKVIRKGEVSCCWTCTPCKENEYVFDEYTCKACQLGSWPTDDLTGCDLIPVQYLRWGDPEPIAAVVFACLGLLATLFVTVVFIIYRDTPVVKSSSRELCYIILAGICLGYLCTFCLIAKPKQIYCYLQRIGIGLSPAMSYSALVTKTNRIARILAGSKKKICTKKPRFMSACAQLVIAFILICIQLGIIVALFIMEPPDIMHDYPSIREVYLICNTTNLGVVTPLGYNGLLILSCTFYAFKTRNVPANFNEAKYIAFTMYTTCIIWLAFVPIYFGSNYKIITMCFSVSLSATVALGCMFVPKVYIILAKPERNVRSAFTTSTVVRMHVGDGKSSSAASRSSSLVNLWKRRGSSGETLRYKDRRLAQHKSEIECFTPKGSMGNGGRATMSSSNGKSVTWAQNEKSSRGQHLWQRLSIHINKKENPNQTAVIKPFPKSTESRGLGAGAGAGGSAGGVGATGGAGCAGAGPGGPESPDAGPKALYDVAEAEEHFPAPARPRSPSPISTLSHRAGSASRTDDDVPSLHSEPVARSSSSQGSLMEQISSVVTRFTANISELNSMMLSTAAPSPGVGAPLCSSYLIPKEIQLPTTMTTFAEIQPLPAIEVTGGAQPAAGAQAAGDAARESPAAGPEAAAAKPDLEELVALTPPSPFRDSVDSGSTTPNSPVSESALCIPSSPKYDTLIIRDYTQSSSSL
UniProt P28221, sequence (whole entry, looked up): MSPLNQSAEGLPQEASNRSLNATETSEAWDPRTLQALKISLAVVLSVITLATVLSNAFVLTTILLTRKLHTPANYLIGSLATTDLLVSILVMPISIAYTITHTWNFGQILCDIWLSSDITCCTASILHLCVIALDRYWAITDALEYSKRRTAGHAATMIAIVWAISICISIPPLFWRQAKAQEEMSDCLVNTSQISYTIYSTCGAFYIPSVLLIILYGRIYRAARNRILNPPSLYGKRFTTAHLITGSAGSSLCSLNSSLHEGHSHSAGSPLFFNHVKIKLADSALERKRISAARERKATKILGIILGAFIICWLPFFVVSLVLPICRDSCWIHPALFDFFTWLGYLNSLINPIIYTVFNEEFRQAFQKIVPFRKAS
UniProt P49841, sequence (whole entry, looked up): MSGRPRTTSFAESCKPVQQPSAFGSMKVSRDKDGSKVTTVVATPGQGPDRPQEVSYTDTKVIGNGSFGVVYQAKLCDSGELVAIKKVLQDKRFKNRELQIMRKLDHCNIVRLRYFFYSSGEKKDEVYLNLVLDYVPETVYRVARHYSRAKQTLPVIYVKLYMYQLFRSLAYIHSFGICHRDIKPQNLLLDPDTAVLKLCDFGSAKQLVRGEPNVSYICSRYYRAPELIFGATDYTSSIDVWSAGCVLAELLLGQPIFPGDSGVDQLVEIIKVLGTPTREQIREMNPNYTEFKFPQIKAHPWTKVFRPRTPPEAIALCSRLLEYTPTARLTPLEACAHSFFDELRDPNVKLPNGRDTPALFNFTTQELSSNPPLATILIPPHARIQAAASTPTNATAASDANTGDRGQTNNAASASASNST
UniProt O43603, sequence (whole entry, looked up): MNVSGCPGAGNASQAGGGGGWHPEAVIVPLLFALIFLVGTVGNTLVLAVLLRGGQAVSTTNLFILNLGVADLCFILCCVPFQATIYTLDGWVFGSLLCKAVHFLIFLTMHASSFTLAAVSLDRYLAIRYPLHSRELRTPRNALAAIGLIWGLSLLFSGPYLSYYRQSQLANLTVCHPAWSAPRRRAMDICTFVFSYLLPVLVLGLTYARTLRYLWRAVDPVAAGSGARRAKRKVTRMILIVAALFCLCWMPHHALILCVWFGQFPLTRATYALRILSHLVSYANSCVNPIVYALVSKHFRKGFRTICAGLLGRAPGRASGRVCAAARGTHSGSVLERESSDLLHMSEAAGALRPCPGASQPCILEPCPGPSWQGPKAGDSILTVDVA

SMILES	target	assay	system	conditions	inhibition
O=C(Nc1cccnn1)N1CCN([C@@H]2CCOc3cc(C(F)(F)F)ccc32)CC1	catechol-O-methyltransferase	enzyme activity		20 µM	3%
CCCCCCCCCCCCCCCC(=O)CP(=O)(O)O	plsY	inhibitor		200 µM	28%
CN(CCN1CCC(OC(=O)Nc2ccccc2-c2ccccc2)CC1)C(=O)c1ccc(CN2CCC(C(N)=O)CC2)cc1	adenylyl cyclase	enzyme activity		1 µM	3%
CN1CCN(c2nc(N)c3ccccc3n2)CC1	glycine receptor (rat)	binding, radioligand binding		0.1 µM, mean of two	10.5%
COc1cc2c(cc1OC)CN(C(=O)COC(=O)c1cn(C)c3ccccc13)CC2	Trypanothione synthetase	enzyme activity, BIOMOL Green phosphate release		25 µM	33.7 ± 6.1%
CC(C)(C)C(O)(CCc1ccc(Cl)cc1)Cn1cncn1 (stereo not shown)	Palmitoyl-protein thioesterase 1 (Homo sapiens, UniProt P50897)	Spectrum Collection screen		concentration not given, with: substrate 20 µM	69%
COCc1c(-c2cc3cc(C)cc(OC)c3s2)c2c(N)ncnn2c1CN1CCNC(=O)C1	adenosine transporter	radioligand binding		10 µM	41%
Cc1ncc(C)n2nc(/C=C/c3nc(N4CCCC4)cc(N4CCOCC4)n3)nc12	catechol O-methyltransferase	enzyme activity		10 µM	-11%
CN(C(=O)n1cnc(-c2ccc[n+]([O-])c2)c1)C1CCCCC1	GRM5 (Homo sapiens, UniProt P41594)	radioligand binding		10 µM, with: [3H]quisqualic acid	-11%
CCCCCCCCCCCC(=O)C(F)(F)P(=O)(O)O	plsY	inhibitor		200 µM	48%
O=C(N1CCC2(CC1)C[C@H](CN1CCCCS1(=O)=O)CCO2)C1(c2ccccc2)CCCC1	DHX58 (Homo sapiens, UniProt Q96C10)	ATPase activity, inhibitor		50 µM	0%
C[C@@H]1N=C(c2ccccc2F)c2cc(Br)ccc2-n2cnc(C(=O)O)c21	sigma receptor 2	binding		10 µM	-19.5 ± 30.4%
COc1ccc(N2C(=O)N(c3c(C)cccc3Cl)Cc3cnc(Nc4ccc(C5CCN(C)CC5)cc4OC)nc32)nc1	RPS6KA4 (Homo sapiens, UniProt O75676)	kinase activity, inhibitor		0.5 µM, MSK2	5.41%
O=c1ccc2ccccc2o1	LCK	enzyme activity		10 µM, SafetyScreen44	-10.2%
CCC(C)c1ccccc1OCC(=O)N1CCC(C(=O)Nc2ccc3c(c2)OCO3)CC1 (stereo not shown)	Trypanothione synthetase	enzyme activity, BIOMOL Green phosphate release		25 µM	37.1 ± 4.7%
CN1CCC(c2cc(-c3ccncc3)c(-c3ccc(F)cc3)[nH]2)CC1	cGMP-dependent protein kinase (PKG, Plasmodium falciparum, UniProt Q8I719, T618Q)			10 µM	16 ± 4.5%

SMILES	target	assay	system	conditions	inhibition
CCCCCCCCCCCCCCCC(=O)NP(=O)(O)O	plsY	inhibitor		200 µM	75%
O=c1c(Cl)c(Cl)cnn1Cc1nc2ccccc2c2ccccc12	Trypanothione synthetase	enzyme activity, BIOMOL Green phosphate release		25 µM	11.6 ± 4.6%
O=C(Nc1cccnn1)N1CCC(=Cc2cccc(Oc3ccc(C(F)(F)F)cn3)c2)CC1	GABAB1B receptor, human	binding		50 µM, with: [3H]CGP-54626	13%
Cn1cccc1-c1cccnc1	HTR1D (Homo sapiens, UniProt P28221)	binding		50 µM	-2.07%
CCCCCCCC/C=C\CCCCCCCC(=O)C(F)(F)P(=O)(O)O	plsY	inhibitor		200 µM	100%
O=C(Nc1cnccc1Cl)N1CCN(Cc2ccc3c(c2)OC(F)(F)O3)CC1	Monoacylglycerol lipase ABHD6 (Abhd6, Rattus norvegicus, UniProt Q5XI64)	probe labelling, inhibitor, competitive ABPP with azido-FP probe, item: ABHD6	rat brain membrane fraction	1 µM	6.6%
CN1CCN(c2cc(-c3ccncc3)c(-c3ccc4ccccc4c3)nn2)CC1	GALR2 (Homo sapiens, UniProt O43603)	antagonist, FLIPR		10 µM	-7.6%
O=C(COC(=O)c1cccnc1N1CCCC1)c1cc(F)ccc1F	Trypanothione synthetase	enzyme activity, BIOMOL Green phosphate release		25 µM	34.1 ± 6%
COc1cc2c(NC3CCN(C)CC3)cc(-c3ccc(C)o3)nc2cc1OCCCN1CCCC1	DNMT1 (Homo sapiens, UniProt P26358)	enzyme activity		1234.57 nM	13%
C[C@H](N)Cn1ncc2ccc3c(c21)CCCO3.Cl	sigma receptor (non-selective)	radioligand binding		10 µM	57%
CCc1cc(=O)[nH]c(-n2nc(C)cc2NC(=O)c2ccc(C)c(C)c2)n1	LCK	radiometric kinase		10 µM	no inhibition
FC(F)(F)c1cccc(Nc2nc(NCCOc3ccccc3)nc3[nH]cnc23)c1	CSNK1E (Homo sapiens, UniProt P49674)	enzyme activity, inhibitor, Thermo Fisher kinase screening		5 µM	20% and 18%
O=C(CCCCCCCCCCOc1ccccc1)NP(=O)(O)O	plsY	inhibitor		200 µM	47%
O=C(NC(Cc1c[nH]c2ccccc12)P(=O)(Oc1ccccc1)Oc1ccccc1)OCc1ccccc1 (racemic)	Structural polyprotein, capsid protease (O'nyong-nyong virus, UniProt P22056)	protease activity, irreversible covalent inhibitor		100 µM, 30 °C, CP Δ2 construct, 1% DMSO, with: H-Gly-Glu-Ser-Glu-Val-Trp-ACC, 50 µM	53.7 ± 3.7%
C[C@H](C(=O)N[C@H]1COc2ccccc2[C@@H]1S(C)(=O)=O)c1ccc(F)cc1	GSK3B (Homo sapiens, UniProt P49841)	activity		10 µM, Eurofins selectivity panel	-11%
